Published values collected from several papers.
Each line is one published result; not all experiments were run side by side. “And” joins repeats or separate records; there may be more than shown. ± marks the error that the study gave.

With Cc1cc2cc(C(=O)N(Cc3ccc(C(F)(F)F)cn3)[C@H](C)c3ncccn3)ccc2nc1N the inhibition was 89% (ELISA, measured: SDMA; mouse, HCT-116 MTAP-deleted xenograft, tumour; oral, 100 mg/kg once daily, 21 doses, 4 h after last dose; baseline: vehicle).
Nc1ncc(-c2cc(-c3cnn(CC(F)(F)F)c3)ncc2F)nc1C(=O)NC1CNCC(F)C1 (centres unmarked) has a remaining binding of 94% (EPHA6; KINOMEscan; 1 µM; baseline: DMSO control).
For NC[C@@H](C(=O)Nc1ccc(-c2cn[nH]c2)cc1)c1ccccc1, the IOP was 35.6 mmHg (tonometry; NZW rabbit, magnetic bead-induced ocular hypertension; ocular, 0.03%, 0 h).
CC(=O)[O-].O.O.[O-]c1ccc(Br)cc1C=NCCN1CCOCC1.[Zn+2] gave an inhibition of 6.31% (superoxide scavenging; 40 µM).
With COC1OC(C)C(O)C(OC2OC(C)C(O)C(OS(=O)(=O)O)C2OS(=O)(=O)O)C1OS(=O)(=O)O (centres unmarked) the APTT prolongation was 1.1 fold (human plasma; 128 µg/mL; baseline: control).
With CC(CCC(=O)NCc1ccc(C(=O)NO)cc1)C1CCC2C3C(O)CC4CC(O)CCC4(C)C3CCC12C (centres unmarked) the relative abundance was 18.5% (measured: TCA; PCK rat (Pkhd1 mutant), portal blood; oral gavage, dose not given, 5 months; baseline: total bile acids).
For COc1ccc(C([O-])=CC(=O)c2ccc(C(C)(C)C)cc2)cc1.[Ru+2].c1ccc(-c2ccccn2)nc1.c1ccc(-c2ccccn2)nc1, “relaxed circular DNA increase” read 45 to 50% (gel electrophoresis; pUC19 plasmid DNA; no light; baseline: no compound).
COc1ccc(C(=O)CCc2cc(C(CCc3ccc(O)cc3OC)c3ccc(O)cc3)c(O)cc2OC)cc1 (racemic) — result for “arachidonic acid level”: 100000 ± 9130 pg/mL (human blood; 1 µM, added: A23187).
CCCCCCC(CSS(=O)(=O)O)NCC(C)C (centres unmarked): “spleen weight decrease” 8% (Swiss Webster mice, Schistosoma mansoni infected; 100 mg/kg; baseline: vehicle control).
The APTT prolongation of COC1OC(C)C(OS(=O)(=O)O)C(OC2OC(C)C(OS(=O)(=O)O)C(OS(=O)(=O)O)C2OS(=O)(=O)O)C1OS(=O)(=O)O (centres unmarked) is reported as 1.4 fold (human plasma; 128 µg/mL; baseline: control).
For CNS(=O)(=O)Nc1nccc(Cc2c(C)c3ccc(Oc4ncccc4F)cc3oc2=O)c1F, the IC50 was 1.8 nM (FaDu; cell viability; 7 days).
COc1cc(O)ccc1CCC(c1ccc(O)cc1)c1cc2c(c(C)c1O)OC(c1ccc(O)cc1)CC2 (mixture of isomers) gave an amount of 4500 ± 1700 pg/mL blood (measured: LTB4; human whole blood; 3 µM, added: Escherichia coli).
O=Cc1cc(C(F)(F)F)cc(C(F)(F)F)c1: “pseudo-first-order rate constant” 0 h⁻¹ (HPLC-MS; pH 10.2, added: 50 mM N-α-acetyl-lysine).
For CCCCCCCCCCCCCCCC(=O)OCC(CSC[C@H](N)C(=O)N[C@@H](CO)C(=O)N[C@@H](CCCCN)C(=O)N[C@@H](CCCCN)C(=O)N[C@@H](CCCCN)C(=O)N[C@@H](CCCCN)C(=O)NCCCCCC(=O)N[C@@H](CCCCN)C(=O)N[C@@H](CC(C)C)C(=O)N[C@H](C(=O)N[C@@H](Cc1ccccc1)C(=O)N[C@@H](Cc1ccccc1)C(=O)N[C@@H](Cc1ccc2ccccc2c1)C(=O)O)C(C)C)OC(=O)CCCCCCCCCCCCCCC (some centres unmarked), the GFAP level was 0.948 and 3.89 and 1.14 and 0.946 and 4.04 (APP/PS1 mouse, hippocampus; local injection, dose not given, unit not given; baseline: injected over adjacent side).
COc1cc2c(NC3CCN(C(C)C)CC3)cc(N3CCOCC3)nc2cc1OCCCN1CCCC1: “log2 fold change” 0.0848 (TMT proteomics, measured: MFGE8; 5xFAD mouse, hippocampus; dose not given; baseline: wild type).
COc1ccc(NC(=O)c2ccc3[nH]c(-c4ccc(N(C)C)cc4)nc3c2)cn1 has a tumour volume of 688 mm3 and 545 mm3 and 1410 mm3 and 1710 mm3 (Lewis lung carcinoma, mice, syngeneic graft, subcutaneous; intraperitoneal, 25 mg/kg daily, day 10).
CCC(CC)n1c(Cc2cccs2)nc2cc(C(=O)N[C@@H](CC(=O)O)c3ccccc3)ccc21 — result for body weight: “decreased” (mouse, HFpEF model (HFD plus L-NAME); ip, 20 mg/kg/day, 2 wk).
C=CC(=O)Nc1cccc(Cn2ncc3cnc(Nc4cnn(CCOC)c4)nc32)c1: “percent of control” 100% (ADCK4 human; binding, KINOMEscan; 100 nM; lower = stronger binding).
COc1ccc(C(=O)OC2CCN(C)CC2)cc1 gave a translation activity of 99.7% (Trypanosoma cruzi; reporter mRNA translation, inhibitor, measured: Renilla luciferase mRNA; cell-free extract; concentration not given, test 1; baseline: positive over negative control).
For CN1CCCNC(=O)c2cccc(c2)C(=O)NCCCN(C)CCCNc2cccc3c2C(=O)c2cccc(c2C3=O)NCCC1, “log2 fold change” read 1.23 (SAS; RNA-seq, measured: TMEM44-AS1 mRNA; 1 µM, 6 h; baseline: untreated cells).
The IC50 of CN1CCC(N[C@@H]2CCc3[nH]c4c(C(N)=O)ccc(-c5ccccc5Cl)c4c3C2)CC1 is reported as 8.34 nM (organoid viability, CellTiter-Glo 3D; sample E colorectal cancer organoid, human; 6 days).
COC1OC(C)C(OC2OC(C)C(OS(=O)(=O)O)C(OC3OC(C)C(OC4OC(C)C(OS(=O)(=O)O)C(OC5OC(C)C(OC6OC(C)C(OS(=O)(=O)O)C(OC7OC(C)C(OC8OC(C)C(OS(=O)(=O)O)C(OC9OC(C)C(OC%10OC(C)C(OS(=O)(=O)O)C(OS(=O)(=O)O)C%10O)C(OS(=O)(=O)O)C9O)C8O)C(OS(=O)(=O)O)C7O)C6O)C(OS(=O)(=O)O)C5O)C4O)C(OS(=O)(=O)O)C3O)C2O)C(OS(=O)(=O)O)C1O (centres unmarked) gave an APTT prolongation of 1.3 fold (human plasma; 128 µg/mL; baseline: control).
Cc1onc(-c2ccccc2)c1-c1ccc(S(=O)(=O)Cl)cc1 — result for “pseudo-first-order rate constant”: 3.6 h⁻¹ (HPLC-MS; pH 10.2, added: 50 mM N-α-acetyl-lysine).
For COC1CN([C@H]2CC[C@H]([C@@]3(C)Oc4c(Cl)cc(C(=O)NCc5c(SC)cc(C)[nH]c5=O)c(C)c4O3)CC2)C1, “log2 fold change” read 1.94 (RNA-seq, measured: mouse KIT homolog; mouse, HT-1376 xenograft, whole blood; dose not given, PRC2 target gene; baseline: vehicle).
CC(C)C[C@H](NC(=O)CNC(=O)[C@H](CCC(N)=O)NC(=O)[C@H](CC(C)C)NC(=O)[C@H](CC(C)C)NC(=O)[C@H](CCCNC(=N)N)NC(=O)[C@H](CCC(N)=O)NC(=O)[C@H](CC(C)C)NC(=O)[C@H](CCCNC(=N)N)NC(=O)[C@H](C)NC(=O)CNC(=O)[C@H](CCC(=O)O)NC(=O)[C@H](CCCNC(=N)N)NC(=O)[C@H](CC(C)C)NC(=O)[C@H](CCCNC(=N)N)NC(=O)[C@H](CO)NC(=O)[C@H](CC(C)C)NC(=O)[C@H](CCC(=O)O)NC(=O)[C@H](CO)NC(=O)[C@@H](NC(=O)[C@H](Cc1ccccc1)NC(=O)[C@@H](NC(=O)CNC(=O)[C@H](CC(=O)O)NC(=O)C(C)(C)NC(=O)[C@@H](N)Cc1c[nH]cn1)[C@@H](C)O)[C@@H](C)O)C(=O)N[C@@H](CC(C)C)C(=O)N[C@@H](CCC(N)=O)C(=O)NCC(=O)N[C@@H](CC(C)C)C(=O)N[C@H](C(=O)NCC(=O)N[C@@H](CCCCNC(=O)COCCOCCNC(=O)COCCOCCNC(=O)CC[C@H](NC(=O)CCCCCCCCCCCCCCCCC(=O)O)C(=O)O)C(N)=O)C(C)C: energy expenditure “increased” (indirect calorimetry; DIO C57BL/6J mice; sc, 300 nmol/kg twice daily, throughout 8 days).
OCc1ccc(C2NCCc3cc(O)c(O)cc32)o1 (centres unmarked) has a Fe2+ chelation of 92.38 ± 0.33% (ferrozine; cell-free; 100 µM, DMSO solvent).
The APTT prolongation of COC1OC(C)C(OS(=O)(=O)O)C(OC2OC(C)C(OS(=O)(=O)O)C(OC3OC(C)C(OS(=O)(=O)O)C(OC4OC(C)C(OS(=O)(=O)O)C(OC5OC(C)C(OS(=O)(=O)O)C(OS(=O)(=O)O)C5O)C4O)C3O)C2O)C1O (centres unmarked) is reported as 1.3 fold (human plasma; 128 µg/mL; baseline: control).
For Cc1ncsc1-c1ccc(C(C)NC(=O)C2CC(O)CN2C(=O)C(NC(=O)CCCCCCCCCCN2CCCC(Nc3ncc(Cl)c(Nc4ccccc4S(=O)(=O)C(C)C)n3)C2)C(C)(C)C)cc1 (centres unmarked), “log2 fold change” read -1.48 (22Rv1; RNA-seq, measured: PRELID3A mRNA; concentration not given; baseline: DMSO).
The tumour volume of CCCCCc1ccc(S(=O)(=O)N2CC2C(=O)OC)cc1 (centres unmarked) is reported as 754 mm3 (mouse, Lewis lung carcinoma; intraperitoneal, 15 mg/kg, 16 doses, day 16).
For COc1ccccc1C1NCCc2cc(O)c(O)cc21 (centres unmarked), the Fe2+ chelation was 94.78 ± 0.33% (ferrozine; cell-free; 100 µM, DMSO solvent).
For COc1ccc(S(=O)(=O)N2CCc3ccccc3C2)cc1N1CCN(C(=O)c2ccc(F)cc2C(F)(F)F)CC1, “TH-immunoreactive cell number” read 59.9 ± 13.6 (stereology, optical fractionator, measured: tyrosine hydroxylase; rat, 6-OHDA lesion model, substantia nigra pars compacta, lesioned side; 0.3 µg/24 h).
COC1OC(C)C(OS(=O)(=O)O)C(OC2OC(C)C(OS(=O)(=O)O)C(OC3OC(C)C(OS(=O)(=O)O)C(OC4OC(C)C(OS(=O)(=O)O)C(OC5OC(C)C(OS(=O)(=O)O)C(OC6OC(C)C(OS(=O)(=O)O)C(OC7OC(C)C(OS(=O)(=O)O)C(OS(=O)(=O)O)C7O)C6O)C5O)C4O)C3O)C2O)C1O (centres unmarked) gave an APTT prolongation of 1.2 fold (human plasma; 128 µg/mL; baseline: control).
With CN1CCC[C@]1(C)/C=C/S(=O)(=O)NC(=O)Nc1c2c(cc3c1CCC3)CCC2 the IL-1β inhibition was 97.3% (human, whole blood ex vivo; 12.5 mg twice daily, day 14, 3 h, multiple ascending dose, added: LPS and ATP).
The APTT prolongation of COC1OC(C)C(OS(=O)(=O)O)C(OC2OC(C)C(OS(=O)(=O)O)C(OC3OC(C)C(OS(=O)(=O)O)C(OC4OC(C)C(OS(=O)(=O)O)C(OC5OC(C)C(OS(=O)(=O)O)C(OC6OC(C)C(OS(=O)(=O)O)C(OC7OC(C)C(OS(=O)(=O)O)C(OC8OC(C)C(OS(=O)(=O)O)C(OS(=O)(=O)O)C8O)C7O)C6O)C5O)C4O)C3O)C2O)C1O (centres unmarked) is reported as 1.2 fold (human plasma; 128 µg/mL; baseline: control).
For COCCOCCOCCNC(=O)Cc1cc(CC(=O)N[C@H]2C[C@H]3C(=O)Nc4cc(OCCOCCOCCOC)cc(n4)C(=O)N4CCC[C@H]4C(=O)Nc4cc(OCCOCCOCCOC)cc(n4)C(=O)N4CCC[C@H]4C(=O)Nc4cc(OCCOCCOCCOC)cc(n4)C(=O)N3C2)cc(CC(=O)N[C@H]2C[C@H]3C(=O)Nc4cc(OCCOCCOCCOC)cc(n4)C(=O)N4CCC[C@H]4C(=O)Nc4cc(OCCOCCOCCOC)cc(n4)C(=O)N4CCC[C@H]4C(=O)Nc4cc(OCCOCCOCCOC)cc(n4)C(=O)N3C2)c1, the ΔG was -17.8 ± 0.1 kJ mol^–1 (anion binding, ITC; phosphate buffer 35 mM; pH 7.4, 298 K, added: sodium sulfate).

Excerpt of the above:
CCCCCCC(CSS(=O)(=O)O)NCC(C)C (centres unmarked): “spleen weight decrease” 8% (Swiss Webster mice, Schistosoma mansoni infected; 100 mg/kg; baseline: vehicle control).
CCC(CC)n1c(Cc2cccs2)nc2cc(C(=O)N[C@@H](CC(=O)O)c3ccccc3)ccc21 — result for body weight: “decreased” (mouse, HFpEF model (HFD plus L-NAME); ip, 20 mg/kg/day, 2 wk).
For COc1ccc(C([O-])=CC(=O)c2ccc(C(C)(C)C)cc2)cc1.[Ru+2].c1ccc(-c2ccccn2)nc1.c1ccc(-c2ccccn2)nc1, “relaxed circular DNA increase” read 45 to 50% (gel electrophoresis; pUC19 plasmid DNA; no light; baseline: no compound).
